Assay results pooled from the literature.
Every numbered part comes from another study and shows a few of its results, in no order. Substitutions count along the parent as printed.

Block 1 — method: protein binding microarray; molecule type: double-stranded DNA, one strand shown; matrix: in vitro; concentration: not given; reference: not given; direction: higher = stronger binding
Target: Histone acetyltransferase KAT6A, winged helix 1, GST fusion (KAT6A, Homo sapiens, UniProt Q92794, residues 1-85)
Notes: 8-mer, flanks averaged, mean of 2 arrays, mostly near background
Residues (chain): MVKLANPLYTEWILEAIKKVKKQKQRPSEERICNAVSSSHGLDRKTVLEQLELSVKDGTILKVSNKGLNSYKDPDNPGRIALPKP
| Sequence | E-score |
| --- | --- |
| ATATCACG | 0.0135 |
| GATCTTAC | 0.0434 |
| CGTCTTGC | 0.0972 |
| ACTGTCTG | -0.122 |
| CCTGTGGC | -0.171 |
| CCGGTCCC | 0.328 |

Block 2 — target: CCNF, cyclin fold, Cln2 fusion (human); method: yeast growth competition, sequencing; matrix: yeast; notes: strong parent motif; reference: not given; direction: higher = stronger binding
Parent: RB1 docking peptide (human); PKPLKKLRFDIEG; partner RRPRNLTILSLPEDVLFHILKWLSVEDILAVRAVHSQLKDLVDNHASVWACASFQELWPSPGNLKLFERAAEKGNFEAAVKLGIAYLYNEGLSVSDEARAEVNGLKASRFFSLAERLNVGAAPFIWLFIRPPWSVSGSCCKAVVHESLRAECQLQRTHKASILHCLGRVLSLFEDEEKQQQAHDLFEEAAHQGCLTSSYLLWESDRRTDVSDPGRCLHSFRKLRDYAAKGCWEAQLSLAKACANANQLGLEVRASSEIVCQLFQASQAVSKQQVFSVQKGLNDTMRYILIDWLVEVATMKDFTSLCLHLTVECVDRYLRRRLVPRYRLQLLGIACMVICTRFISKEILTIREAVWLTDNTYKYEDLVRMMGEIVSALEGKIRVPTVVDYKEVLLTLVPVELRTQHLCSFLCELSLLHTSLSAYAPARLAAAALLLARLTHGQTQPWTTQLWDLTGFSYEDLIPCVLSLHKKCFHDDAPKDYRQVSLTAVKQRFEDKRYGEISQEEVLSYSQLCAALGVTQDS
| Variant | normalised enrichment score |
| --- | --- |
| PKHLKKLRFDIEG [P3H] | -0.055 |
| PKPLKKLHFDIEG [R8H] | 2.32 |
| PKPLKKLRFDIES [G13S] | 1.63 |
| PKPGKKLRFDIEG [L4G] | 2.19 |
| PKPLKKLRFDSEG [I11S] | 1.33 |
| PKPRKKLRFDIEG [L4R] | 4.2 |
| PKPLDKLRFDIEG [K5D] | 0.0161 |
| PKPLKKLRFDEEG [I11E] | 1.27 |

Block 3 — method: aptamer microarray, sandwich; molecule type: DNA with 2'F-ANA; matrix: in vitro; concentration: 200 nM; added: Cy3 exosite-II aptamer, 400 nM; direction: higher = stronger binding; sequence: GGTTGGTGTGGTTGG
Target: Prothrombin, mature alpha-thrombin (F2, Homo sapiens, UniProt P00734)
Notes: whole 15-mer aptamer, many near background
| Modification | mean fluorescence intensity [a.u.] |
| --- | --- |
| 2'F-ANA at 2 3 4 5 8 14 15 | 49.5 |
| 2'F-ANA at 4 5 7 10 12 14 | 43.5 |
| 2'F-ANA at 1 4 5 8 9 10 12 13 | 44.9 |
| 2'F-ANA at 5 7 8 9 10 11 12 15 | 50.1 |
| 2'F-ANA at 2 7 9 10 14 | 96.6 |
| 2'F-ANA at 1 7 8 11 14 | 58.8 |
| 2'F-ANA at 2 3 7 8 10 11 15 | 347 |

Further values, each from its own experiment
| Molecule | target | test | test system | setting | how to read | measurement | result |
| --- | --- | --- | --- | --- | --- | --- | --- |
| PhoQ, residues 284 288 289 292 302 303 GNNTDL | PhoP, residues 12 14 15 18 19 LYHSL (Escherichia coli, UniProt P23836) | Sort-seq, refers to: YFP reporter | E. coli | PhoQ-PhoP variant library, added: 10 µM Mg2+ | reference: high Mg2+ state, higher = stronger signaling | fold induction | 2.17 |
